Assay results of several laboratories.
Numbered parts are unrelated; each lists some results of a single study. Changes are numbered by the printed parent chain.
Sequence of UniProt Q9UKS7 (whole entry, looked up): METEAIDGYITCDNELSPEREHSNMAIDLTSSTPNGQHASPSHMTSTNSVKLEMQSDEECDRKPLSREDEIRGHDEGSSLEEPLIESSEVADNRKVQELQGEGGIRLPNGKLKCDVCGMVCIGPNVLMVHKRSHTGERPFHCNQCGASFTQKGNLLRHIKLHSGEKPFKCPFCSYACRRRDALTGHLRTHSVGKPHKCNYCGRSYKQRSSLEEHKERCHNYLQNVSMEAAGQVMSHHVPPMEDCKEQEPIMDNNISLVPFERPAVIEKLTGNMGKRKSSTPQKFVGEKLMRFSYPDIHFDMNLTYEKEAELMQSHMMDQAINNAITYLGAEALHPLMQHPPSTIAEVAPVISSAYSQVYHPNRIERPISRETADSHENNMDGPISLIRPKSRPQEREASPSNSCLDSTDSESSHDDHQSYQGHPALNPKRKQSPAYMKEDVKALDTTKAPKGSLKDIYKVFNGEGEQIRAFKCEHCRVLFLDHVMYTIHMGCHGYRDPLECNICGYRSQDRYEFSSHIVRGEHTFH
Sequence of UniProt Q96SW2 (whole entry, looked up): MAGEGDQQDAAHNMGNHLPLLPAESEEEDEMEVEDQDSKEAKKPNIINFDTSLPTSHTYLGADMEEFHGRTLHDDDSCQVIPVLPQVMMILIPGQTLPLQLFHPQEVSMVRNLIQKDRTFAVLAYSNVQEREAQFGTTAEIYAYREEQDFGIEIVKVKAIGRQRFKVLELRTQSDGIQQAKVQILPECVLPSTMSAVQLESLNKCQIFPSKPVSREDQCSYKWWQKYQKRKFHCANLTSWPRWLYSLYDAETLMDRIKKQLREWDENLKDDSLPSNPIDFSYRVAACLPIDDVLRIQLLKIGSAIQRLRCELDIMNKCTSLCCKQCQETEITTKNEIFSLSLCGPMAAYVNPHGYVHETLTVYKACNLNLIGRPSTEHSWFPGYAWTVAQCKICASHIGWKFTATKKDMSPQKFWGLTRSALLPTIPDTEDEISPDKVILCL

Series 1 — method: RNA Bind-n-Seq; form: RNA; medium: in vitro; tested at: 20 nM; setting: 6-mer, flanks averaged, single round; with: 150 mM LiCl; reference: input library; direction: higher = stronger binding
Target: TAR DNA-binding protein 43, full length, His tag (TARDBP, Homo sapiens, UniProt Q13148, residues 1-414)
| Oligonucleotide | 6-mer enrichment (R) |
| --- | --- |
| GUGGAU | 1.19 |
| GCUUCG | 0.861 |
| GAUUAG | 0.935 |
| UUGAGA | 1 |
| CGAUCG | 0.936 |
| GCCUGC | 0.963 |
| UGGCCG | 1.02 |
| GCACCC | 1.1 |

Series 2 — method: RNAcompete; form: RNA; medium: in vitro; tested at: 20 nM; setting: 7-mer, probes averaged, single round; reference: mean of 7-mers; direction: higher = stronger binding
Target: PABPC1L2, full length, GST fusion (mouse, UniProt A0ABA7IW68)
Target sequence (chain): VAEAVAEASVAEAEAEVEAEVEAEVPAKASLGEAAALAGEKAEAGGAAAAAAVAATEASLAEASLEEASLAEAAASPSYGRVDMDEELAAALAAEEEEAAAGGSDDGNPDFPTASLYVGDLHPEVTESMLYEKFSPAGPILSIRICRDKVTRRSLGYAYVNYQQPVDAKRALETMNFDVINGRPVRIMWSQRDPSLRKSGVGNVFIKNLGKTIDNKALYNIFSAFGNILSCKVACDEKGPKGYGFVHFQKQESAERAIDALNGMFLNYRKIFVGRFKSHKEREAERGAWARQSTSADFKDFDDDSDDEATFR
| Oligonucleotide | 7-mer Z-score |
| --- | --- |
| GUAGAAG | 0.0189 |
| GCUGGUG | -0.079 |
| CUGAACA | 0.0515 |
| CUAUGAA | -0.0482 |
| GUAGAGG | 0.0895 |
| ACAGAAU | 0.0732 |
| GGGUACA | 0.41 |
| GCAGUGA | -0.0609 |

Series 3 — method: aptamer microarray, sandwich; form: DNA with 2'F-ANA; medium: in vitro; tested at: 200 nM; with: Cy3 exosite-II aptamer, 400 nM; direction: higher = stronger binding; oligonucleotide: GGTTGGTGTGGTTGG
Target: Prothrombin, mature alpha-thrombin (F2, Homo sapiens, UniProt P00734)
Setting: whole 15-mer aptamer, many near background
| Modification | mean fluorescence intensity |
| --- | --- |
| 2'F-ANA at 2 3 4 8 12 14 15 | 356 a.u. |
| 2'F-ANA at 1 2 3 6 8 9 10 12 14 15 | 55.2 a.u. |
| 2'F-ANA at 1 2 4 5 8 9 10 11 13 15 | 125 a.u. |
| 2'F-ANA at 3 5 8 9 10 12 13 14 15 | 55.9 a.u. |
| 2'F-ANA at 2 3 4 6 7 8 9 10 11 13 15 | 160 a.u. |
| 2'F-ANA at 2 3 4 6 7 11 13 15 | 326 a.u. |
| 2'F-ANA at 1 2 5 8 10 13 | 159 a.u. |
| 2'F-ANA at 3 7 8 9 10 12 15 | 662 a.u. |

Series 4 — target: CCNB3, cyclin fold, Cln2 fusion (human); method: yeast growth competition, sequencing; medium: yeast; setting: strong parent motif; reference: not given; direction: higher = stronger binding; parent: viral docking peptide; TSVRRALFTGGSD
| Substitution | normalised enrichment score |
| --- | --- |
| S12L | 1.6 |
| S12M | 1.73 |
| F8L | 0.445 |
| F8E | -0.436 |
| G10T | 2.17 |
| S12A | 1.47 |
| T9C | 1.42 |
| S2C | 2.04 |
| A6I | 3.25 |
| R4V | 0.56 |
| R5P | -0.144 |
| S12F | 1.52 |
| R5I | 0.546 |
| F8R | 0.0277 |
| R5A L7A | -0.0695 |
| A6Y | 0.212 |
| F8H | 0.0655 |
| R4P | 0.394 |

Mixed results
| SMILES | target | action | method | cells | tested at | measurement | result |
| --- | --- | --- | --- | --- | --- | --- | --- |
| O=C1CCC(N2Cc3c(ccc4c3OCC43CCN(CC4CCCCC4)CC3)C2=O)C(=O)N1 (stereo not shown) | CRBN/Zinc finger protein Helios (Homo sapiens, UniProt Q96SW2+Q9UKS7) | degrader | HiBiT | HEK293 | 123.5 nM | protein remaining | 47.8% |

Excerpt of the above (series 3):
| Modification | mean fluorescence intensity |
| --- | --- |
| 2'F-ANA at 1 2 3 6 8 9 10 12 14 15 | 55.2 a.u. |
| 2'F-ANA at 1 2 5 8 10 13 | 159 a.u. |
| 2'F-ANA at 3 5 8 9 10 12 13 14 15 | 55.9 a.u. |
